Measured values gathered from unrelated publications.
Each line is one published result; not all experiments were run side by side. Numbers after ± are the reported error.
PTPN1: Tyrosine-protein phosphatase non-receptor type 1 (PTPN1, Homo sapiens, UniProt P18031)
FURIN: Furin (FURIN, Homo sapiens, UniProt P09958)
HLA class I histocompatibility antigen, A alpha chain allele A*80:01: HLA class I histocompatibility antigen, A alpha chain, allele A*80:01 (Homo sapiens, UniProt P04439)
MCA2: Metacaspase-2 (MCA2, Trypanosoma brucei brucei, UniProt Q585F3)

Chains of the proteins cited; added tags and fusions are not shown. Residues count along the entry.
UniProt P18031, 1-321 limits assumed: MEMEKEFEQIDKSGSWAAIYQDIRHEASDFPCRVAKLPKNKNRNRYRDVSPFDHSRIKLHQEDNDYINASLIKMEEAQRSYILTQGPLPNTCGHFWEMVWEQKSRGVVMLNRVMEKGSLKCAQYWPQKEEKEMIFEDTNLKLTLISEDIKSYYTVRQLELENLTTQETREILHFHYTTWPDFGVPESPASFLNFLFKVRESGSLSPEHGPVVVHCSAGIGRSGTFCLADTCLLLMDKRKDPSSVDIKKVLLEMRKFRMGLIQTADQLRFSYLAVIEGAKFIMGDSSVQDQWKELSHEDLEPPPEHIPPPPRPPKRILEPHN
UniProt P18031, whole entry: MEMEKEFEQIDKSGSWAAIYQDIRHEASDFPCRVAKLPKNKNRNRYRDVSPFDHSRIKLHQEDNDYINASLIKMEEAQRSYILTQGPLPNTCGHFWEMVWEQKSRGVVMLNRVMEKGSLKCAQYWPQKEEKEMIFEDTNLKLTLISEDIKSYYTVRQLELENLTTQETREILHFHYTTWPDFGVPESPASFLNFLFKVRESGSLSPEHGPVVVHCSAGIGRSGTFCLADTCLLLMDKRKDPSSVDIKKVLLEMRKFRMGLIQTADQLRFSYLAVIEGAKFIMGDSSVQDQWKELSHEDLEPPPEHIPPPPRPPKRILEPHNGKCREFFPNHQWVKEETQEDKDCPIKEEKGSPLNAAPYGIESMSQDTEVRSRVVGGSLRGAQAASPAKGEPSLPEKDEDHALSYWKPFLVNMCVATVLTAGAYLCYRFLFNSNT
UniProt P09958, whole entry, looked up: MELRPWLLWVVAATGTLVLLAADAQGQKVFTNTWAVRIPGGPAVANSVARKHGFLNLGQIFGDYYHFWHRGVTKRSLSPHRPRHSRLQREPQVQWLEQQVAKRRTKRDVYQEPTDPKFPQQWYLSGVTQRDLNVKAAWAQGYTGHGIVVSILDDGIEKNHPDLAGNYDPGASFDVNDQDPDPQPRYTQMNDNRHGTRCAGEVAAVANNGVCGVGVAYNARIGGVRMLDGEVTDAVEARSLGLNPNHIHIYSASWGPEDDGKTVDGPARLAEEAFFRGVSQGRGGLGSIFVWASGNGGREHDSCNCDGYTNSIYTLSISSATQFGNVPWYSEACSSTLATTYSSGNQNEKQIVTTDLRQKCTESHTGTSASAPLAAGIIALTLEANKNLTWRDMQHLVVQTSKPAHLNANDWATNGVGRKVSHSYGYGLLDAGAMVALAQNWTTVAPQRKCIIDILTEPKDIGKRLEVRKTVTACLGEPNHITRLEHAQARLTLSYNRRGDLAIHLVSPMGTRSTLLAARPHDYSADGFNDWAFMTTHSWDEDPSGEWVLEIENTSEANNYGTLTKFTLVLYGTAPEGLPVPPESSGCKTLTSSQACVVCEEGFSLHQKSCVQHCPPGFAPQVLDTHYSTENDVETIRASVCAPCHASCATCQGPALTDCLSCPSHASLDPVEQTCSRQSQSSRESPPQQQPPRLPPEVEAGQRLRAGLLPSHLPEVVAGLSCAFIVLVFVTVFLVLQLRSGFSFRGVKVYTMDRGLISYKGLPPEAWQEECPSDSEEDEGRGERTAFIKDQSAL
UniProt Q585F3, whole entry, looked up: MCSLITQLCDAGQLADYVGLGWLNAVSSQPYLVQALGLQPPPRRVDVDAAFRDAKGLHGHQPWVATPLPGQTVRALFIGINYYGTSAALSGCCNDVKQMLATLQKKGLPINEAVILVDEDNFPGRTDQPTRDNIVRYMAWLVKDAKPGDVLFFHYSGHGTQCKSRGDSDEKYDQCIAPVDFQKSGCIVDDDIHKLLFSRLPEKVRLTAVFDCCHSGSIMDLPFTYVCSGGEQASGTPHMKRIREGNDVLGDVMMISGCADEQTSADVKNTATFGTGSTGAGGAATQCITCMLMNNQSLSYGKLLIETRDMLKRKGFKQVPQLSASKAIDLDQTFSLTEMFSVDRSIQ
UniProt Q99816, whole entry, looked up: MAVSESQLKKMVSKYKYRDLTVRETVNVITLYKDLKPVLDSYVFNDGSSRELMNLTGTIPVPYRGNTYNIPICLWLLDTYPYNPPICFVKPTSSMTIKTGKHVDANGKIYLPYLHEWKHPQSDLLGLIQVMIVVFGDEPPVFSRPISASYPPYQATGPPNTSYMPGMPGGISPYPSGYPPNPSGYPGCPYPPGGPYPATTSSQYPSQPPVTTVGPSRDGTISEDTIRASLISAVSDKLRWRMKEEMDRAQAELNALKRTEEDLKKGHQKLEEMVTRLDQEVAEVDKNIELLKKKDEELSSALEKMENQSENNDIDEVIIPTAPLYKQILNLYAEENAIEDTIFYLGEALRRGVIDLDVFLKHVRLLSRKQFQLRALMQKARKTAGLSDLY
UniProt O07911, 1-430: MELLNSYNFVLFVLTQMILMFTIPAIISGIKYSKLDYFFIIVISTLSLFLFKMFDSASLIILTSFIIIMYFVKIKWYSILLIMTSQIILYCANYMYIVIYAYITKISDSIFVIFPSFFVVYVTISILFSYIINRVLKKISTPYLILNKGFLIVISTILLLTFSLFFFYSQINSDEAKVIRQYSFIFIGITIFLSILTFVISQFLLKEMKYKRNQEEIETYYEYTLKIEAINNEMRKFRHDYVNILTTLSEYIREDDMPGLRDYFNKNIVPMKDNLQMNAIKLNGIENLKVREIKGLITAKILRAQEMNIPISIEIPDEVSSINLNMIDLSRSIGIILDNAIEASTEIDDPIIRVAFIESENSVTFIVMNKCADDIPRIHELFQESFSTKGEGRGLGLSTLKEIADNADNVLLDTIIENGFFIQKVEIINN

| Structure (SMILES) | target | assay | test system | conditions | scale | endpoint | value |
| --- | --- | --- | --- | --- | --- | --- | --- |
| CC(=O)N[C@@H](C)C(=O)N[C@@H](CO)C(=O)N[C@@H](CO)C(=O)N[C@@H](CC(=O)O)C(=O)N[C@@H](CCC(=O)O)C(=O)N[C@@H](Cc1ccc(OP(=O)(O)O)cc1)C(=O)N[C@@H](C)C(=O)N[C@@H](C)C(N)=O | PTPN1 | substrate | – | pH 7.4, catalytic domain | – | kcat | 31 ± 1 s⁻¹ |
| C[C@@H](O)[C@H](NC(=O)c1ccccc1N)C(=O)N[C@@H](Cc1c[nH]cn1)C(=O)N[C@@H](CCCNC(=N)N)C(=O)N[C@H](C(=O)N[C@@H](CCCNC(=N)N)C(=O)N[C@@H](CCCNC(=N)N)C(=O)N[C@@H](CO)C(=O)N[C@H](C(=O)N[C@@H](CO)C(=O)N[C@@H](CC(=O)O)C(=O)N[C@@H](CCC(N)=O)C(=O)NCCNc1ccc([N+](=O)[O-])cc1[N+](=O)[O-])[C@@H](C)O)[C@@H](C)O | FURIN | substrate | – | – | reference: with KCl over without KCl | kcat/Km ratio | 25.4 |
| CC(C)[C@H](NC(=O)[C@H](CCC(N)=O)NC(=O)[C@H](CC(=O)O)NC(=O)[C@H](Cc1c[nH]c2ccccc12)NC(=O)[C@@H](N)Cc1ccc(O)cc1)C(=O)N[C@H](C(=O)N[C@@H](Cc1ccccc1)C(=O)N[C@@H](Cc1ccccc1)C(=O)N[C@@H](Cc1ccc(O)cc1)C(=O)O)[C@@H](C)O | HLA class I histocompatibility antigen, A alpha chain allele A*80:01 | – | – | – | direction not given | z-score | -2.3 |
| C[C@H](NC(=O)[C@H](CCCNC(=N)N)NC(=O)[C@H](CCCNC(=N)N)NC(=O)[C@H](CCCNC(=N)N)NC(=O)c1ccccc1N)C(=O)N[C@@H](CCCCN)C(=O)N[C@@H](CCCNC(=N)N)C(=O)N[C@@H](CO)C(=O)N1CCC[C@H]1C(=O)N[C@@H](CCCCN)C(=O)N[C@@H](Cc1c[nH]cn1)C(=O)N[C@@H](CCC(N)=O)C(=O)NCCNc1ccc([N+](=O)[O-])cc1[N+](=O)[O-] | FURIN | substrate | – | pH 7 | – | kcat | 5.6 s⁻¹ |
| CC(C)C[C@H](NC(=O)CNC(=O)[C@H](CC(=O)O)NC(=O)[C@H](CC(C)C)NC(=O)[C@H](CC(C)C)NC(=O)[C@H](Cc1ccc(O)cc1)NC(=O)[C@H](CC(C)C)NC(=O)[C@H](C)N)C(=O)N[C@@H](CCCNC(=N)N)C(=O)O | HLA class I histocompatibility antigen, A alpha chain, allele A*26:03 (Homo sapiens, UniProt P04439) | – | – | – | direction not given | z-score | -1.01 |
| CC(=O)N[C@@H](CC(=O)O)C(=O)N[C@H](C(=O)N[C@@H](C)C(=O)N[C@@H](CC(=O)O)C(=O)N[C@H](C(=O)N[C@@H](Cc1ccc(OP(=O)(O)O)cc1)C(=O)N[C@@H](CC(=O)O)C(=O)N[C@@H](Cc1c[nH]c2ccccc12)C(=O)N[C@@H](CCC(=O)O)C(=O)N[C@@H](Cc1ccccc1)C(N)=O)C(C)C)[C@@H](C)O | PTPN1 | substrate, continuous UV | – | pH 7.4 | – | kcat/Km | 5.8e+06 M⁻¹ s⁻¹ |
| CC[C@H](C)[C@H](NC(=O)[C@H](Cc1ccc(O)cc1)NC(=O)[C@H](CC(N)=O)NC(=O)[C@H](Cc1ccccc1)NC(=O)[C@H](Cc1ccccc1)NC(=O)[C@H](CS)NC(=O)[C@H](Cc1ccccc1)NC(=O)[C@@H](NC(=O)[C@@H](N)[C@@H](C)O)C(C)C)C(=O)O | HLA class I histocompatibility antigen, A alpha chain allele A*80:01 | – | – | – | direction not given | z-score | 0.38 |
| CC(=O)N[C@@H](C)C(=O)N[C@@H](Cc1ccc(OP(=O)(O)O)cc1)C(=O)N[C@@H](Cc1ccc(OP(=O)(O)O)cc1)C(=O)N[C@@H](CCC(=O)O)C(=O)N[C@H](C(=O)N[C@@H](CO)C(=O)N[C@@H](Cc1ccc(OP(=O)(O)O)cc1)C(=O)N[C@@H](C)C(=O)N[C@@H](C)C(N)=O)C(C)C | PTPN1 | substrate, continuous UV | – | pH 7.4 | – | kcat/Km | 9.5e+06 M⁻¹ s⁻¹ |
| CC[C@H](C)[C@H](NC(=O)[C@@H](NC(=O)[C@@H](N)CCCNC(=N)N)C(C)C)C(=O)N[C@@H](CCCNC(=N)N)C(=O)N[C@H](C(=O)N[C@H](C(=O)N[C@@H](CCCNC(=N)N)C(=O)N[C@@H](CCC(=O)O)C(=O)N[C@@H](CCCCN)C(=O)O)C(C)C)[C@@H](C)O | HLA class I histocompatibility antigen, A alpha chain allele A*80:01 | – | – | – | direction not given | z-score | 0.38 |
| CC(C)[C@H](NC(=O)[C@H](CO)NC(=O)[C@H](CCCNC(=N)N)NC(=O)[C@H](C)NC(=O)[C@H](CCCCN)NC(=O)c1ccccc1N)C(=O)N[C@@H](C)C(=O)N[C@@H](CCC(N)=O)C(=O)NCCNc1ccc([N+](=O)[O-])cc1[N+](=O)[O-] | MCA2 | enzyme activity, substrate, FRET hydrolysis | Trypanosoma brucei | pH 7.4 | – | Km | 0.36 µM |
| C[C@H](NC(=O)[C@H](CO)NC(=O)[C@H](CCCNC(=N)N)NC(=O)[C@H](CCCNC(=N)N)NC(=O)[C@H](CCCCN)NC(=O)[C@H](CCCNC(=N)N)NC(=O)[C@H](CCCNC(=N)N)NC(=O)[C@H](CO)NC(=O)c1ccccc1N)C(=O)N[C@@H](CO)C(=O)N[C@H](C(=O)N[C@@H](CCC(N)=O)C(=O)NCCNc1ccc([N+](=O)[O-])cc1[N+](=O)[O-])[C@@H](C)O | FURIN | substrate | – | pH 7 | – | kcat | 7.8 s⁻¹ |
| C[C@H](NC(=O)[C@H](C)NC(=O)[C@H](Cc1ccc(OP(=O)(O)O)cc1)NC(=O)[C@H](Cc1ccccc1)NC(=O)[C@H](CCC(=O)O)NC(=O)[C@H](Cc1cc(F)c(O)c(F)c1)NC(=O)[C@H](CCC(=O)O)NC(=O)[C@@H](N)CCCNC(=N)N)C(N)=O | PTPN1 | enzyme activity, substrate | – | pH 7.4 | – | kcat/Km | 3.2e+06 M⁻¹ s⁻¹ |
| CSCC[C@H](NC(=O)[C@@H]1CCCN1C(=O)[C@@H]1CCCN1C(=O)[C@H](CCSC)NC(=O)[C@@H]1CCCN1C(=O)[C@@H]1CCCN1C(=O)[C@H](C)NC(=O)[C@H](CO)NC(=O)[C@@H]1CCCN1C(=O)[C@@H](NC(=O)[C@H](CC(C)C)NC(=O)[C@H](CO)NC(=O)CNC(=O)CNC(=O)[C@@H](N)Cc1ccc(O)cc1)C(C)C)C(=O)O | Tumor susceptibility gene 101 protein, UEV domain (Homo sapiens, UniProt Q99816) | thermal stability | – | 800 µM, 8% DMSO | – | Tm | 68.8 ± 0.2 °C |
| CC(=O)N[C@@H](CCCNC(=N)N)C(=O)N[C@H](C(=O)N[C@@H](CC(C)C)C(=O)N[C@@H](C)C(=O)N[C@@H](C)C(=O)N[C@@H](Cc1ccc(OP(=O)(O)O)cc1)C(=O)N[C@@H](CCC(=O)O)C(=O)N[C@@H](CCC(=O)O)C(=O)N[C@H](C(=O)N[C@@H](Cc1c[nH]cn1)C(N)=O)C(C)C)[C@@H](C)O | PTPN1 | substrate, continuous UV | – | pH 7.4 | – | kcat/Km | 840000 M⁻¹ s⁻¹ |
| CC(C)C[C@H](NC(=O)[C@H](CCCNC(=N)N)NC(=O)[C@H](C)NC(=O)[C@H](CCCCN)NC(=O)c1ccccc1N)C(=O)N[C@@H](CO)C(=O)N[C@@H](C)C(=O)N[C@@H](CCC(N)=O)C(=O)NCCNc1ccc([N+](=O)[O-])cc1[N+](=O)[O-] | MCA2 | enzyme activity, substrate, FRET hydrolysis | Trypanosoma brucei | pH 7.4 | – | Km | 1.4 µM |
| CC(C)C[C@@H]1NC(=O)[C@H](CO)NC(=O)[C@H](CO)NC(=O)[C@@H](NC(=O)CCc2cn(CCOCCOCCOCCOCCOCCOCCOCCO)nn2)CSC(=O)[C@H](Cc2ccccc2)NC1=O | agrC (Staphylococcus aureus, UniProt O07911) | Agr quorum sensing, antagonist, fluorescence reporter | Staphylococcus aureus, agr-deleted reporter strain, solution | concentration not given, added: AIP-I 0.1 µM | – | inhibition | inhibited |
| CC(C)[C@H](NC(=O)CNC(=O)[C@H](C)NC(=O)[C@H](Cc1ccccc1)NC(=O)[C@H](CCCNC(=N)N)NC(=O)[C@H](CCCCN)NC(=O)[C@H](Cc1c[nH]cn1)NC(=O)[C@H](CCCNC(=N)N)NC(=O)[C@H](CCCNC(=N)N)NC(=O)[C@H](CO)NC(=O)c1ccccc1N)C(=O)N[C@@H](CCC(N)=O)C(=O)NCCNc1ccc([N+](=O)[O-])cc1[N+](=O)[O-] | FURIN | substrate | – | pH 7 | – | kcat | 1.7 s⁻¹ |
| CC(C)C[C@H](NC(=O)[C@H](Cc1ccc(O)cc1)NC(=O)[C@@H]1CCCN1C(=O)[C@H](CCC(N)=O)NC(=O)[C@H](CCC(N)=O)NC(=O)[C@H](CO)NC(=O)[C@@H]1CCCN1C(=O)[C@@H](N)Cc1ccccc1)C(=O)O | HLA class I histocompatibility antigen, B alpha chain, allele B*51:01 (Homo sapiens, UniProt P01889) | – | – | – | direction not given | z-score | -3.81 |
| CC(C)C[C@H](NC(=O)[C@H](CO)NC(=O)[C@H](CCCNC(=N)N)NC(=O)[C@H](CCCCN)NC(=O)[C@H](CCCCN)NC(=O)[C@H](CCCNC(=N)N)NC(=O)[C@H](CCCNC(=N)N)NC(=O)[C@H](CCCNC(=N)N)NC(=O)[C@H](CCC(=O)O)NC(=O)[C@H](CCCNC(=N)N)NC(=O)c1ccccc1N)C(=O)N[C@@H](CO)C(=O)NCC(=O)N[C@@H](CCC(N)=O)C(=O)NCCNc1ccc([N+](=O)[O-])cc1[N+](=O)[O-] | FURIN | substrate | – | pH 7 | – | kcat | 4.1 s⁻¹ |
| CC(=O)N[C@@H](C)C(=O)N[C@@H](CO)C(=O)N[C@@H](CO)C(=O)N[C@@H](CC(=O)O)C(=O)N[C@@H](CC(=O)O)C(=O)N[C@@H](Cc1ccc(OP(=O)(O)O)cc1)C(=O)N[C@@H](C)C(=O)N[C@@H](C)C(N)=O | PTPN1 | substrate, continuous UV | – | pH 7.4 | – | kcat/Km | 1.8e+06 M⁻¹ s⁻¹ |
| CC[C@H](C)[C@H](NC(=O)CNC(=O)[C@@H]1CCCN1C(=O)[C@H](Cc1ccccc1)NC(=O)[C@H](CC(C)C)NC(=O)[C@@H]1CCCN1)C(=O)N[C@H](C(=O)N[C@@H](CCCNC(=N)N)C(=O)N[C@H](C(=O)O)C(C)C)[C@@H](C)O | HLA class I histocompatibility antigen, A alpha chain allele A*80:01 | – | – | – | direction not given | z-score | 0.38 |
| C[C@@H](O)[C@H](NC(=O)[C@H](CCC(N)=O)NC(=O)[C@H](CCCNC(=N)N)NC(=O)[C@H](CCCNC(=N)N)NC(=O)[C@H](CCCNC(=N)N)NC(=O)[C@H](CCCNC(=N)N)NC(=O)[C@H](CO)NC(=O)[C@H](CCC(N)=O)NC(=O)c1ccccc1N)C(=O)N1CCC[C@H]1C(=O)N1CCC[C@H]1C(=O)N[C@@H](CCC(N)=O)C(=O)NCCNc1ccc([N+](=O)[O-])cc1[N+](=O)[O-] | FURIN | substrate | – | pH 7 | – | kcat | 5.5 s⁻¹ |

Some of these lines once more:
| Structure (SMILES) | target | assay | test system | conditions | scale | endpoint | value |
| --- | --- | --- | --- | --- | --- | --- | --- |
| CC(=O)N[C@@H](C)C(=O)N[C@@H](CO)C(=O)N[C@@H](CO)C(=O)N[C@@H](CC(=O)O)C(=O)N[C@@H](CCC(=O)O)C(=O)N[C@@H](Cc1ccc(OP(=O)(O)O)cc1)C(=O)N[C@@H](C)C(=O)N[C@@H](C)C(N)=O | PTPN1 | substrate | – | pH 7.4, catalytic domain | – | kcat | 31 ± 1 s⁻¹ |
| CC(C)[C@H](NC(=O)[C@H](CO)NC(=O)[C@H](CCCNC(=N)N)NC(=O)[C@H](C)NC(=O)[C@H](CCCCN)NC(=O)c1ccccc1N)C(=O)N[C@@H](C)C(=O)N[C@@H](CCC(N)=O)C(=O)NCCNc1ccc([N+](=O)[O-])cc1[N+](=O)[O-] | MCA2 | enzyme activity, substrate, FRET hydrolysis | Trypanosoma brucei | pH 7.4 | – | Km | 0.36 µM |
| C[C@H](NC(=O)[C@H](CO)NC(=O)[C@H](CCCNC(=N)N)NC(=O)[C@H](CCCNC(=N)N)NC(=O)[C@H](CCCCN)NC(=O)[C@H](CCCNC(=N)N)NC(=O)[C@H](CCCNC(=N)N)NC(=O)[C@H](CO)NC(=O)c1ccccc1N)C(=O)N[C@@H](CO)C(=O)N[C@H](C(=O)N[C@@H](CCC(N)=O)C(=O)NCCNc1ccc([N+](=O)[O-])cc1[N+](=O)[O-])[C@@H](C)O | FURIN | substrate | – | pH 7 | – | kcat | 7.8 s⁻¹ |
| CC(C)[C@H](NC(=O)CNC(=O)[C@H](C)NC(=O)[C@H](Cc1ccccc1)NC(=O)[C@H](CCCNC(=N)N)NC(=O)[C@H](CCCCN)NC(=O)[C@H](Cc1c[nH]cn1)NC(=O)[C@H](CCCNC(=N)N)NC(=O)[C@H](CCCNC(=N)N)NC(=O)[C@H](CO)NC(=O)c1ccccc1N)C(=O)N[C@@H](CCC(N)=O)C(=O)NCCNc1ccc([N+](=O)[O-])cc1[N+](=O)[O-] | FURIN | substrate | – | pH 7 | – | kcat | 1.7 s⁻¹ |
